Results of several laboratories.
Each line is one published result; not all experiments were run side by side.

Structure (SMILES) | assay | test system | setting | measurement | value
O=C(Nc1ccccc1)C1CCN(C(=O)Oc2cccnc2)CC1 |  | healthy women | oral, 60 mg, 7 days | Gastrointestinal disorders adverse events | 0%
Cn1cncc1-c1c(F)cncc1NC(=O)c1c(N)nn2cc(F)cnc12 |  | human patients | oral, 270 mg once daily, 21 days | dose-limiting toxicity platelet decrease | 25%
C=CC(=O)Nc1cc(Nc2nccc(Nc3cc(Cl)c(F)cc3C(C)(C)O)n2)c(OC)cc1N1CC[C@@H](N(C)C)C1 |  | human patients | oral, 200 mg, treatment-emergent adverse events | patients with AST increased | 6.3%
CCc1ccc(CC/C=C/c2ccc3c(c2)C(=O)CC3)cc1 |  | Sprague-Dawley rat, female | oral, 30 mg/kg/day, 14 days | Basophil percentage | 0.27%
C[C@]1(CO)Cc2ncn(-c3ccc(C#N)c(Cl)c3)c2C(=O)O1 |  | healthy humans | 10 mg, fasted | drug-related Headache incidence | 25%
Cc1cc(C)c(CNC(=O)c2cc(Cl)c3c(c2C)O[C@@](C)([C@H]2CC[C@H](N(C)C)CC2)O3)c(=O)[nH]1 |  | human, relapsed/refractory NHL | concentration not given, all TEAEs, grade 5 | Pneumonia incidence | 0%
COc1cc2nccc(Oc3ccc(NC(=O)c4cc5c(n(-c6ccccc6)c4=O)CCCC5=O)nc3)c2cc1OC |  | patients with relapsed/refractory AML | oral, 10 mg once daily | TEAEs leading to death | 0%
CO[C@H]1C[C@@H]2CC[C@@H](C)[C@@](O)(O2)C(=O)C(=O)N2CCCC[C@H]2C(=O)O[C@H]([C@H](C)C[C@@H]2CC[C@@H](OC(=O)NCCOCCOCCOCCOCCOCCOCCOCCOCCC(=O)N3CCc4cc(Cn5nc(-c6ccc7oc(N)nc7c6)c6c(N)ncnc65)ccc4C3)[C@H](OC)C2)C[C@@H](O)[C@H](C)/C=C(\C)[C@@H](O)[C@@H](OC)C(=O)[C@H](C)C[C@H](C)/C=C/C=C/C=C/1C | phase 1 dose escalation, measured: vomiting | advanced solid tumour patients | intravenous, 16 mg weekly, any grade | TRAE incidence | 25%
CN1CC[C@@H](c2c(O)cc(O)c3c(=O)cc(-c4ccc(C(F)(F)F)cc4Cl)oc23)[C@@H]1CO | measured: Anemia | relapsed B-cell malignancies | oral, 150 mg, grade 3-4, intermittent dosing | patients with adverse event | 0%
CCC[C@@](N)(CO)CCc1ccc(OCCCCCC(C)C)cc1 |  | dog, male hounds, plasma | oral capsule, 10 mg/kg, geometric mean | AUC(0-72 h) | 6.78 µM·h
COc1cc2c(Oc3ccc4[nH]c(C)cc4c3F)ccnc2cc1OCC1(N)CC1 | measured: grade 3 gingival bleeding | paediatric high-risk refractory sarcoma | whole group | incidence of adverse event | 0%
COc1ccc2nc3cc(Cl)ccc3c(Nc3cc(CN4CCCC4)c(O)c(CN4CCCC4)c3)c2n1 |  | mouse, blood | intraperitoneal, 14 mg/kg | mean platelet volume | 6.2 fL
CC(C)(C(=O)NC1C2CC3CC1CC(C(N)=O)(C3)C2)N1CCN(c2ccc(C(F)(F)F)cn2)CC1 (stereo not shown) | measured: metabolite | human, CSF | oral, 50 mg once daily, 5 days, median | dose-normalised AUC(0-24) | 0.57 (ng·h/mL)/mg
